Measurements gathered from unrelated publications.
Numbered parts are unrelated; each lists some results of a single study. Positions count from the first letter of the parent shown.

Block 1 — target: ATF7, bZIP domain (human); technique: DHFR protein complementation; matrix: yeast; relative to: wild-type JUN-FOS pair; reading: higher = stronger binding; quantity: binding fitness
Notes: single substitutions, most at no-binding floor
Parent: JUN, bZIP domain (human); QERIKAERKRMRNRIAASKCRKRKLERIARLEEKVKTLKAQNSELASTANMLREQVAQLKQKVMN; partner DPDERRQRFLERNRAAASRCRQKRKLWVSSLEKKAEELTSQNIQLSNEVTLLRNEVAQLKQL
Substitution = K36C; result = -1.01 natural log
Substitution = K34C; result = -1.15 natural log
Substitution = I28N; result = -1.23 natural log
Substitution = V35P; result = -1.47 natural log
Substitution = A46H; result = -1.01 natural log
Substitution = S47N; result = -0.727 natural log
Substitution = R30T; result = -0.703 natural log
Substitution = L31V; result = -1.36 natural log

Block 2 — technique: RNA Bind-n-Seq; form: RNA; matrix: in vitro; tested at: 1 µM; notes: whole 134-nt RNA, ends assumed; with: 150 mM KCl; relative to: input library; reading: higher = stronger binding; quantity: log2 enrichment
Target: Ras GTPase-activating protein-binding protein 1, RRM domain (G3BP1, Homo sapiens, UniProt Q13283)
Chain of UniProt Q13283 (whole entry, looked up): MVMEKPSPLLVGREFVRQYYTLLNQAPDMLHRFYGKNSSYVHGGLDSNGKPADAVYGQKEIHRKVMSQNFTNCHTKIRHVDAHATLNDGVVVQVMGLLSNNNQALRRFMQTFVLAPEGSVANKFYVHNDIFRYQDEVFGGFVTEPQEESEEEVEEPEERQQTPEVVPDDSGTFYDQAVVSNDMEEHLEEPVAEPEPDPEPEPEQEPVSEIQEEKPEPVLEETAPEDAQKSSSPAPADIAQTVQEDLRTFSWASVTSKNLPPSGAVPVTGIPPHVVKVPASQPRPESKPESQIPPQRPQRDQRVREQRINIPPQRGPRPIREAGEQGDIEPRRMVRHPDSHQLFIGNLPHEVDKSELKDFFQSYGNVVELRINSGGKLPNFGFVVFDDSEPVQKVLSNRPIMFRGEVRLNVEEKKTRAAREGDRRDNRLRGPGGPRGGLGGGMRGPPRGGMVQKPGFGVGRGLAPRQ
All sequences stand within: GGGAGUUCUACAGUCCGACGAUC … UGGAAUUCUCGGGUGUCAAGG
Oligonucleotide = UCAAGUCCUGUGCUACACAUCGUAUGUACCGAAUCGGGAAAGGAAAGGGAAAGGAAAGUAUUAUGUUACGCCGUUCGGAUCUGCACUUCC; result = -0.244
Oligonucleotide = ACCAUGGAGGUGGGCAUCUUUGGGAAGUGGGGCAAGGGGGGGAUAGGGAGGGGGGUAACACUUUGGGAACAGGUGGUCCCAGGUCGUUUC; result = -0.553
Oligonucleotide = ACCAUGCAGGUGGGCAUGUUUGGGAAGUGGGGCAAGGGGGGGAUAGGGAGGGGGGUAACACUUUGGGAACAGGUGGUCCCAGGUCGUUUC; result = -0.421
Oligonucleotide = UGGGAGGUGGAUUUUGUUUAUUUUUAUAGCUCAUUUCCAGGGGUGGGAAUUUUUUUUUAAUAUGUGUCAUGAAUAAAGUUGUUUUUGAAA; result = 1.73
Oligonucleotide = ACCAUGCAGGUGGGCAUCUUUGGGAAGUGGGGCAAGGGGGGUAUAGGGAGGGGGGUAACACUUUGGGAACAGGUGGUCCCAGGUCGUUUC; result = 0.812
Oligonucleotide = CUCAAGUCCUGUGCUACACAUCGUAUGUACCGAAUCGGUUUGGAGGUUUUUGGAAAGUAUUAUGUUACGCCGUUCGGAUCUGCACUUCCA; result = -0.252
Oligonucleotide = CACAGACAACACGCACCCACACAGUCACAGAGGGAAGGGGUUGGGAUGGGGACAGGGUGCACAGCAGGGCGGGGUAGGACCCCAGCCCCU; result = -0.129
Oligonucleotide = CUCAAGUCCUGUGCUACACAUCGUAUGUACCGAAUCGGGCGGGCGGGGCGGGGAAAGUAUUAUGUUACGCCGUUCGGAUCUGCACUUCCA; result = 1.15

Block 3 — target: CCNF, cyclin fold, Cln2 fusion (human); technique: yeast growth competition, sequencing; matrix: yeast; notes: weak parent motif; relative to: not given; reading: higher = stronger binding; quantity: normalised enrichment score
Parent: MASTL docking peptide (human); PMIAKNLMCELDE; partner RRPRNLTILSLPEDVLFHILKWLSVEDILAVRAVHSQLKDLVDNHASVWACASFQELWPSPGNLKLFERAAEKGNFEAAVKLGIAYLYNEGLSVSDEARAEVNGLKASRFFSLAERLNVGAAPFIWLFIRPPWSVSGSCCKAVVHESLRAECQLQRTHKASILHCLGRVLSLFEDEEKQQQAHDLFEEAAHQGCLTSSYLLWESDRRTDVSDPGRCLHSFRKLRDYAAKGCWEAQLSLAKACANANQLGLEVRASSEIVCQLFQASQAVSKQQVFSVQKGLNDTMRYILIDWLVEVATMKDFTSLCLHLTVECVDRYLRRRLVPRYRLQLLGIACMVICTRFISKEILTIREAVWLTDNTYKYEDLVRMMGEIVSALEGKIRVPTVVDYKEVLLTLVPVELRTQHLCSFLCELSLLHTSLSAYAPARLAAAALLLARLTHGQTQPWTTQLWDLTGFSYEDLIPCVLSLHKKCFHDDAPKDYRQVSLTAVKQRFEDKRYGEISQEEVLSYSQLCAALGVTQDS
Substitution = N6V; result = 0.213
Substitution = A4Y; result = 0.0164
Substitution = D12F; result = 0.313
Substitution = E10H; result = 0.217
Substitution = M2N; result = 0.0442
Substitution = L7F; result = -0.558
Substitution = N6L; result = -0.276
Substitution = A4K; result = 0.38

Single results of other studies
Molecule = YILGFAIPI; target = HLA class I histocompatibility antigen, A alpha chain, allele A*80:01 (Homo sapiens, UniProt P04439); assay = peptide-MHC binding; system = peptide; conditions = concentration not given; quantity = binding; result = inactive

Excerpt of the above (block 3):
Substitution = E10H; result = 0.217
Substitution = A4K; result = 0.38
Substitution = M2N; result = 0.0442
Substitution = A4Y; result = 0.0164
